# Results gathered from unrelated publications.
# Several values in a cell are separate wells, animals, samples, runs or records. Numbers after ± are the reported error.
# CNR1 I245A: Cannabinoid receptor 1 (CNR1, Homo sapiens, UniProt P21554, I245A)
Structure (SMILES),tested on,test,test system,conditions,scale,measurement,value
CCCCCn1cc(C(=O)c2ccc3ccccc3c2)c2ccccc21,"CNR2 (Homo sapiens, UniProt P34972, V261L)","cAMP, agonist, BRET",,,,EC50,129 nM
O=S(=O)(c1ccc(-c2ccc3ncnc(Nc4ccc(OCc5cccc(F)c5)c(Cl)c4)c3c2)cc1)N1CCNCC1,Leishmania major,"intracellular amastigote growth, luciferase",RAW264.7 macrophages,,,EC50,800 nM
CCC[C@H](C(=O)c1ccccc1)N1CCCC1,"SLC6A3 (Homo sapiens, UniProt Q01959, S149A/S429G)","transporter uptake, inhibitor, radiometric",,,,Ki,579 nM
Cc1cc(C(=O)Nc2nc3cccc(C)c3n2[C@H]2CCCCN(C(=O)/C=C/CN(C)C)C2)ccn1,Trypanosoma brucei,propidium iodide flow cytometry,bloodstream form,"concentration not given, 6 h",,cells in G2 phase,35.4%
CC(C)CC(C(=O)N1CC2(CC1C#N)C(=O)Nc1ccccc12)N(C)C(=O)c1cc2c(F)cc(F)c(F)c2[nH]1 (stereo not drawn),"Cathepsin D (CTSD, Homo sapiens, UniProt P07339)","enzyme activity, inhibitor",,,,IC50,> 100000 nM
CC(C)[C@H](NC(=O)[C@@H]1CSSC(C)(C)[C@H](NC(=O)[C@@H](N)CC(=O)O)C(=O)N[C@@H](Cc2ccccc2)C(=O)N[C@@H](Cc2c[nH]c3ccccc23)C(=O)N[C@@H](CCCCN)C(=O)N[C@@H](Cc2ccc(O)cc2)C(=O)N1)C(=O)O,"UTS2R (Homo sapiens, UniProt Q9UKP6, M134A)","IP1 accumulation, agonist, HTRF",HEK293T,"1 h, 37 °C, M134A mutant, 3.36",,EC50,3.98 nM
CCN(CC)C(=O)[C@@H]1C=C2c3cccc4c3c(cn4C(=O)c3ccco3)C[C@H]2N(C)C1,"DRD1 (Homo sapiens, UniProt P21728)","ligand displacement, radioligand",,,,Ki,1980 nM and 1990 nM
O=C1NC2(CC2)COc2ncc(F)cc2[C@H]2COCCN2c2ccn3ncc1c3n2,,,"Sprague-Dawley rat, female, plasma","oral, 5 mg/kg/day, end of treatment, 4-week repeated-dose toxicity",,prothrombin time,8.2 ± 0.3 s
C=CC(=O)Nc1ccc(F)c(-c2ncnc3[nH]cc(C(=O)OCC)c23)c1,"JAK1 (Homo sapiens, UniProt P23458)","inhibitor, kinase",,together with: ATP 100 µM,,IC50,1520 nM
CS(C)(=O)=Nc1ccc(-c2ccc(-c3nc4cc(O[C@@H]5CO[C@H]6[C@@H]5OC[C@H]6O)[nH]c4cc3F)cc2)cc1,"CCR2 (Homo sapiens, UniProt P41597)","calcium signal, antagonist",,10 µM,,inhibition,0%
COc1ccccc1-c1n[nH]c2nc(NC3CCN(C(=O)Cc4ccc(F)cc4F)CC3)ncc12,,"bead binding, competition bead pull-down, refers to: LINJ.28.2370",Leishmania donovani axenic amastigote extract,10 µM,relative to: vehicle,relative abundance,0.7
COc1ccccc1C(C[N+](=O)[O-])c1c(-c2ccccc2)[nH]c2ccccc12 (stereo not drawn),CNR1 I245A,"G protein activation, agonist, BRET",,,,EC50,580 nM
O=C(O)CCn1c(=O)oc2cc(Cl)c(Cl)cc21,"CHRM1 (Homo sapiens, UniProt P11229)",agonist,,,,EC50,> 50100 nM
CC[C@H](C)[C@H](NC(=O)[C@H](CO)NC(=O)[C@H](Cc1ccc(O)cc1)NC(=O)[C@H](Cc1ccc(O)cc1)NC(=O)[C@H](CC(N)=O)NC(=O)CNC(=O)[C@H](CO)NC(=O)[C@H](Cc1ccc(O)cc1)NC(=O)[C@H](CO)NC(=O)[C@H](CO)NC(=O)[C@H](CC(N)=O)NC(=O)COCCOCCNC(=O)CN1CCN(CC(=O)O)CCN(CC(=O)O)CCN(CC(=O)O)CC1)C(=O)N[C@@H](CC(C)C)C(N)=O [copper-64 labelled],,dynamic PET,"tamoxifen-induced PDAC mouse model, pancreas","17.5 min, CLDN4-expressing tumours",,maximum pancreas uptake,16.2 %IA/cc
CCN(CC)C(=O)c1ccc(C(c2cccc(O)c2)N2CC(C)N(Cc3ccccc3)CC2C)cc1 (stereo not drawn),"OPRD1 (Homo sapiens, UniProt P41143, E323K)",,,,,Ki,0.32 ± 0.09 nM
Cc1ccc2c(C(C[N+](=O)[O-])c3cccs3)c(-c3ccccc3)[nH]c2c1 (stereo not drawn),CNR1 I245A,"β-arrestin recruitment, agonist, luciferase",,,,EC50,380 nM
C[C@]12CC[C@H](OC(=O)C3CC3)[C@@](C)(COC(=O)C3CC3)C1C[C@H](O)[C@@]1(C)Oc3cc(-c4cccnc4)oc(=O)c3[C@H](O)C21 (stereo partly drawn),Halyomorpha halys,radioligand competition binding,,"Nan-Iav, together with: [3H]-afidopyropen",,Ki,0.00997 nM
CC(C)(C)C(=O)OCOP(=O)(OCOC(=O)C(C)(C)C)C1CCCN(O)C1=O (stereo not drawn),SW-620,,,,,GI50,493 nM
